Results pooled from the literature.
Every numbered part comes from another study and shows a few of its results, in no order.
Sequence of UniProt Q8IU85 (whole entry, looked up): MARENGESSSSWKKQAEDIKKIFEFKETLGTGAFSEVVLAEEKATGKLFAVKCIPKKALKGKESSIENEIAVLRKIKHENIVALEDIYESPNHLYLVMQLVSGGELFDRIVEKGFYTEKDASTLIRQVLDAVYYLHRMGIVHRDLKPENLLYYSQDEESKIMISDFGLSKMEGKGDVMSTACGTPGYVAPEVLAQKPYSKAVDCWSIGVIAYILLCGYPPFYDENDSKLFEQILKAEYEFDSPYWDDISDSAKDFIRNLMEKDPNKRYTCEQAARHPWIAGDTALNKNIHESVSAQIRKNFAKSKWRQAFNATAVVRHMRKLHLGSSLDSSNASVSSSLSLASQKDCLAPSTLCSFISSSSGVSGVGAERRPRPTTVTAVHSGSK
Sequence of UniProt Q8TD19 (whole entry, looked up): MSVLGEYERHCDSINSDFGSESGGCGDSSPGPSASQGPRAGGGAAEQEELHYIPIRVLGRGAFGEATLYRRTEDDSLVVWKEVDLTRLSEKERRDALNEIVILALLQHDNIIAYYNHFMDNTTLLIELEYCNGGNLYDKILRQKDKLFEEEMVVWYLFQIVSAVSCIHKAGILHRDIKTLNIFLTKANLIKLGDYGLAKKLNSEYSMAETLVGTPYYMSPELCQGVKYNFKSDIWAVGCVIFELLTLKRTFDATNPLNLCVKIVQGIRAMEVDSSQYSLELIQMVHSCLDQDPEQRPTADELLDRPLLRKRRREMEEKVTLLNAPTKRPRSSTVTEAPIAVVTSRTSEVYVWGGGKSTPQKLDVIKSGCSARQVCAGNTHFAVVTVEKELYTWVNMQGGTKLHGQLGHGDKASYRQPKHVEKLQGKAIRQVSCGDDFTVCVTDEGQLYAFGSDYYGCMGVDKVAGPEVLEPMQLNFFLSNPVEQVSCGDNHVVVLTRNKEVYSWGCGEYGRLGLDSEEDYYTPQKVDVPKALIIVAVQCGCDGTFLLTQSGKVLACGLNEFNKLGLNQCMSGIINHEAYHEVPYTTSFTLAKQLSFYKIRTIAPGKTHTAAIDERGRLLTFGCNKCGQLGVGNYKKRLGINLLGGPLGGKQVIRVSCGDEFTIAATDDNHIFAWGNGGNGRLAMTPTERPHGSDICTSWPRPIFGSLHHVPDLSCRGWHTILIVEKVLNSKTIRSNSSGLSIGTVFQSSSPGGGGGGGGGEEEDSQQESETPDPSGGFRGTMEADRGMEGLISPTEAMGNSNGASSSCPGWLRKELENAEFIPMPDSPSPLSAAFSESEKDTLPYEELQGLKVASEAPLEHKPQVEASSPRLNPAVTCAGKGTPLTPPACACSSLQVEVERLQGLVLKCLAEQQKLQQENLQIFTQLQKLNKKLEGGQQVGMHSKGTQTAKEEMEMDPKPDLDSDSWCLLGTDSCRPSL
Sequence of UniProt P19784 (whole entry, looked up): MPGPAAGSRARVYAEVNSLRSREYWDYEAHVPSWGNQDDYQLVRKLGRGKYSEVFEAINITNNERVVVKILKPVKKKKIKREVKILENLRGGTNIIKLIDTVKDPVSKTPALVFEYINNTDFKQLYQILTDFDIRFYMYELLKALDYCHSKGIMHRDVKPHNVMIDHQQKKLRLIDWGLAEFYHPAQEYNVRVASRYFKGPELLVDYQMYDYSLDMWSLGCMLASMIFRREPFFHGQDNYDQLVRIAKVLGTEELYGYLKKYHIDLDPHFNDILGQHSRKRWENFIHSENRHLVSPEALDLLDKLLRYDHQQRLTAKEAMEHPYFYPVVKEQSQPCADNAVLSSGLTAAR
Sequence of UniProt P34947 (whole entry, looked up): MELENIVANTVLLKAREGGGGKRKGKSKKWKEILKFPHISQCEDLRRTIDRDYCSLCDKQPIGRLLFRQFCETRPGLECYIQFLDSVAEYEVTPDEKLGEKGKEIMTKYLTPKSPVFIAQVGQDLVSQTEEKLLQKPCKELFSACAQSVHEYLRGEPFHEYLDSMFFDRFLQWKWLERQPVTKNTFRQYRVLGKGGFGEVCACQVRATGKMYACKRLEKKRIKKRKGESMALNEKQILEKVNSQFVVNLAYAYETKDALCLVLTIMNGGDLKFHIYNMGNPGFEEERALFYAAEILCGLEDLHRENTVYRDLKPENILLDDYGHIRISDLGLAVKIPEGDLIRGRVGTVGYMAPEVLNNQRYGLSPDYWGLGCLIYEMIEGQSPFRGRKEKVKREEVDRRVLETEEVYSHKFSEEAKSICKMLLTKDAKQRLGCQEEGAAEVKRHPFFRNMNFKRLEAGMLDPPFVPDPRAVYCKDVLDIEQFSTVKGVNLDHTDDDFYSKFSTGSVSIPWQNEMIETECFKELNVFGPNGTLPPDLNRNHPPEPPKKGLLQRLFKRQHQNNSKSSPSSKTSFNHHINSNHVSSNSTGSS
Sequence of UniProt Q16513 (whole entry, looked up): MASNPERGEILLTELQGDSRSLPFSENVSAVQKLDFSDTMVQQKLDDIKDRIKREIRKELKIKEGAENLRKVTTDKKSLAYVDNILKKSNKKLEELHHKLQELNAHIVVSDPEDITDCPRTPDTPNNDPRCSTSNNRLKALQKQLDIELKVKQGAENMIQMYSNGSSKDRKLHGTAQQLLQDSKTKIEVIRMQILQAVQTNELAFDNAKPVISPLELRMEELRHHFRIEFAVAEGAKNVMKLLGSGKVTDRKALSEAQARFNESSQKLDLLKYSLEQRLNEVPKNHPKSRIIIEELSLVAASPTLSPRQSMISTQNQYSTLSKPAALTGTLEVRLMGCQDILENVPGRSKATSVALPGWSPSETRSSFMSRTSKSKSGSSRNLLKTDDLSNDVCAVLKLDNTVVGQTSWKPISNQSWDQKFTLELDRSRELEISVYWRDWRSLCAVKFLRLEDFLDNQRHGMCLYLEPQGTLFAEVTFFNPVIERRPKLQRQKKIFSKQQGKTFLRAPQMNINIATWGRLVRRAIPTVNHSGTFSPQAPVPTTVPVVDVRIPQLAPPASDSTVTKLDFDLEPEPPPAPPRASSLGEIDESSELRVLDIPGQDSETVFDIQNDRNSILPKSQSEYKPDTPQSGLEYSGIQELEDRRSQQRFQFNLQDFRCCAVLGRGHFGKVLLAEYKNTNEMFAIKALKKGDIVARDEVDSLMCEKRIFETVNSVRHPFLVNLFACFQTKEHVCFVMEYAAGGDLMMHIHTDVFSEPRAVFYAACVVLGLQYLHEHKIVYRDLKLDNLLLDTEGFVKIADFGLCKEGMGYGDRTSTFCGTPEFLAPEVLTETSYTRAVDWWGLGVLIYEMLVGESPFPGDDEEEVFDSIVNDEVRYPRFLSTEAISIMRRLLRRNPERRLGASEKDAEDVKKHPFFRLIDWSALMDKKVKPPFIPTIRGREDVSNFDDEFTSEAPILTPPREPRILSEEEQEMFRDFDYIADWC
Sequence of UniProt P62344 (whole entry, looked up): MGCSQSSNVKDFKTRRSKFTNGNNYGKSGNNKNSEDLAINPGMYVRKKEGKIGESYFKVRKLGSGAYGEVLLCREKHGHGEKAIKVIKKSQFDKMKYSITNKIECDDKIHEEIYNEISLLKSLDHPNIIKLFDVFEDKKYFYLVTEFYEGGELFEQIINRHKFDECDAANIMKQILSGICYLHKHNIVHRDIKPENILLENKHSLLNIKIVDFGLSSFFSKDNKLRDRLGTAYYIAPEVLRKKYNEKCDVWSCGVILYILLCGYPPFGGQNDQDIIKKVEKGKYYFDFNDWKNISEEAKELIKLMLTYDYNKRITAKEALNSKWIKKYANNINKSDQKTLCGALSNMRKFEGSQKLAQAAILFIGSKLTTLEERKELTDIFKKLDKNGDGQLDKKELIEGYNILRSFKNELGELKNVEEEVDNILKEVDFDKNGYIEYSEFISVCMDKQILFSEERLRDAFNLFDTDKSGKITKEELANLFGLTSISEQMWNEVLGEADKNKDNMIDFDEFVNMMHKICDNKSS

Study 1
Cell line: HEK-293T/ACE2
Concentration: concentration not given
Time: 16 (unit not given)
Relative to: vehicle
The viability of CC(=O)OCC[N+](C)(C)C is reported as 98.2%.
CC(C(=O)O)c1ccc(-c2ccccc2)c(F)c1 (stereo not shown) has a viability of 101%.
For O=c1ccn([C@@H]2O[C@H](CO)[C@@H](O)[C@H]2O)c(=O)[nH]1, the viability was 101%.
Cc1cc(-c2ccc(/N=N/c3ccc4c(S(=O)(=O)O)cc(S(=O)(=O)O)c(N)c4c3O)c(C)c2)ccc1/N=N/c1ccc2c(S(=O)(=O)O)cc(S(=O)(=O)O)c(N)c2c1O gave a viability of 98.3%.
Nc1ccn([C@H]2CC[C@@H](CO)O2)c(=O)n1 has a viability of 95.1%.
CCC(=O)O[C@]1(C(=O)SCF)[C@H](C)C[C@H]2[C@@H]3C[C@H](F)C4=CC(=O)C=C[C@]4(C)[C@@]3(F)[C@@H](O)C[C@@]21C gave a viability of 105%.
O=C1CN2Cc3c(ccc(Cl)c3Cl)N=C2N1 gave a viability of 103%.
For CCn1cc(C(=O)O)c(=O)c2cc(F)c(N3CCNC(C)C3)c(F)c21 (stereo not shown), the viability was 100%.

Study 2
Organism: Sarcocystis neurona
Observed: parasite growth
Concentration: 10 µM
Relative to: untreated
For Cl.Oc1cc2c(cc1O)[C@H]1c3ccccc3CN[C@@H]1CC2, “log2 fold change” read 0.44.
Under “log2 fold change”, COc1ccc2[nH]cc(CCN)c2c1 is recorded as 0.34.
CN(C)C(=O)Oc1ccc[n+](C)c1.[Br-] — result for “log2 fold change”: -0.0321.
For CN1CC[C@@]23CCCC[C@@H]2[C@@H]1Cc1ccc(O)cc13.O=C(O)C(O)C(O)C(=O)O, “log2 fold change” read 0.31.
CC(C)CC(N(C)C)C1(c2ccc(Cl)cc2)CCC1.Cl (stereo not shown): “log2 fold change” 0.25.

Study 3
SMILES: COc1ccc2c(c[n+](C)c3c4cc5c(cc4ccc23)OCO5)c1OC
Observed: enzyme activity
Action: inhibitor
Concentration: 0.5 µM
Relative to: control
It gave 97% for remaining activity (NEK9 (Homo sapiens, UniProt Q8TD19)).
For PKN2 (Homo sapiens, UniProt Q16513): remaining activity read 93.3%.
It gave 105% for remaining activity (CAMK1D (Homo sapiens, UniProt Q8IU85)).
For EGFR (Homo sapiens, UniProt P00533): remaining activity read 99.6%.
Cyclin-dependent kinase 2, with cyclin A (CDK2, Homo sapiens, UniProt P24941) — remaining activity: 85.1%.
The remaining activity was 110% (GRK5 (Homo sapiens, UniProt P34947)).
The remaining activity was 89.7% (CSNK2A2 (Homo sapiens, UniProt P19784)).

Other studies, line by line
For CN[C@@H]1C[C@H]2O[C@@](C)([C@@H]1OC)n1c3ccccc3c3c4c(c5c6ccccc6n2c5c31)C(=O)NC4, the viability was 0.4% (normal-adjacent organoid sample F; CellTiter-Glo; 1 µM, replicate mean; relative to: DMSO).
For CC(C)CC(=O)N1CCc2nc(-c3ccc(Br)cc3)nc(N(C)Cc3ccccc3)c2C1, the remaining binding was 100% (CDPK1 (Plasmodium falciparum, UniProt P62344); cell-free assay, competition with immobilised ligand; 0.1 µM).

For quick reference, copied from above (study 3):
The remaining activity was 110% (GRK5 (Homo sapiens, UniProt P34947)).
The remaining activity was 89.7% (CSNK2A2 (Homo sapiens, UniProt P19784)).
